Assay results from different studies.
Numbered parts are unrelated; each lists some results of a single study. Positions count from the first letter of the parent shown.

Sample 1
Target: CCNB3, cyclin fold, Cln2 fusion (human)
Method: yeast growth competition, sequencing
Sample: yeast
Notes: strong parent motif
Relative to: not given
Reading: higher = stronger binding
Starting sequence: BRCA2 docking peptide (human); PSIKRNLLNEFDR; partner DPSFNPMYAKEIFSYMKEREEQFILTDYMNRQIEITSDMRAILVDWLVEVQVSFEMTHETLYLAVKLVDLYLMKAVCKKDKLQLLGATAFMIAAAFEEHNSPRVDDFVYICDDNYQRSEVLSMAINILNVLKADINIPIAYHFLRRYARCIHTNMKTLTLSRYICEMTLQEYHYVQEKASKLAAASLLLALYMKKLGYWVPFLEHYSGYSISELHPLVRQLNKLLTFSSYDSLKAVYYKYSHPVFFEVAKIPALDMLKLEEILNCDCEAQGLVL
`PSINRNLLNEFDR [K4N]` — result for “normalised enrichment score”: 0.165.
`PSIKRNLLNEFNR [D12N]`: “normalised enrichment score” 1.43.
`PSIWRNLLNEFDR [K4W]`: “normalised enrichment score” 0.0013.
Under “normalised enrichment score”, `PSIKRNLLSEFDR [N9S]` is recorded as 1.4.
For `PSLKRNLLNEFDR [I3L]`, “normalised enrichment score” read 1.17.
`PSIKRNLLNEFIR [D12I]` — result for “normalised enrichment score”: -0.487.
`DSIKRNLLNEFDR [P1D]`: “normalised enrichment score” 0.899.
Under “normalised enrichment score”, `PSIKRNLLNEPDR [F11P]` is recorded as -0.218.
`PSTKRNLLNEFDR [I3T]` — result for “normalised enrichment score”: -0.138.
For `PSIKRNLLNECDR [F11C]`, “normalised enrichment score” read -0.21.
Under “normalised enrichment score”, `PGIKRNLLNEFDR [S2G]` is recorded as 0.808.
`CSIKRNLLNEFDR [P1C]` — result for “normalised enrichment score”: 2.14.
For `PSIKRNWLNEFDR [L7W]`, “normalised enrichment score” read 0.144.
`PSIKRNLLNNFDR [E10N]`: “normalised enrichment score” 0.453.
For `PSIKFNLLNEFDR [R5F]`, “normalised enrichment score” read 0.408.
Under “normalised enrichment score”, `PSIKRNLLNEFYR [D12Y]` is recorded as 0.9.
Under “normalised enrichment score”, `PSIKRNLLNEFVR [D12V]` is recorded as 1.1.
`PSIKRNLLNEFDT [R13T]` — result for “normalised enrichment score”: 1.11.
Under “normalised enrichment score”, `PSIKRNLFNEFDR [L8F]` is recorded as 0.729.
`PSIKRNLLNESDR [F11S]` — result for “normalised enrichment score”: -0.538.
Under “normalised enrichment score”, `PSIKRNSLNEFDR [L7S]` is recorded as -0.383.
For `PSIKRTLLNEFDR [N6T]`, “normalised enrichment score” read 2.41.
For `PSIKRNLHNEFDR [L8H]`, “normalised enrichment score” read 0.425.
`PVIKRNLLNEFDR [S2V]`: “normalised enrichment score” 0.887.
Under “normalised enrichment score”, `PSIKRNLLNEFAR [D12A]` is recorded as 1.44.

Sample 2
Target: RNA binding protein fox-1 homolog 2, RRM domain, GST-SBP tag (RBFOX2, Homo sapiens, UniProt O43251-10, residues 100-194)
Method: RNA Bind-n-Seq
Molecule type: RNA
Sample: in vitro
Concentration: 365 nM
Notes: natural RNA segment, single round, ends assumed
Relative to: no-protein control
Reading: higher = stronger binding
`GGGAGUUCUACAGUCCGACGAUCCUCAAUCCUCGGUGAUAUGGGAAAGAGAACUGAGUAUUUGCCCUAUGACUGAGCUUUCUAUAGGAAUUUUAUUAAAGAAUGUUUAAUUUUGUUGUCCUUCUUAAUGUUCUUGGAAUUCUCGGGUGCCAA`: “RBNS enrichment (R)” 0.963.
`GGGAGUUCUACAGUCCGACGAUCCCAACCAAACAAACAAAAAAACAAAGCUAAAAUGACAGCAACCAAAAGUAAUUUGCUUAUUCAGUGGGCAUGUAAAGAGUCUGGCCACCAUGUCCCCUCUGCACCGUGACUGGAAUUCUCGGGUGCCAA`: “RBNS enrichment (R)” 1.85.
`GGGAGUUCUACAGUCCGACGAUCGUGGGUGCCGAGAAAGGAUCUGCCACCACCCUGACAUUGUGUUUUGGAACAGAGUUUUCUGAGAAAACAUUUUCAAGUUAAAGGAAAAUGCUAAGUCUGGCAUGGUAGUCUGGAAUUCUCGGGUGCCAA` — result for “RBNS enrichment (R)”: 0.723.
`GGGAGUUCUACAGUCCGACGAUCUUUGUUUGGAUAUAGUUUAUAGGAAAGUGUGUGGAUGUAUUAUGGCGGAAGGUUUCUUUAUGUUAUUUUGUUAAUUUAUUGGGACUCUGUGUAAGGCCAGGCUUUAGUGGUGGAAUUCUCGGGUGCCAA`: “RBNS enrichment (R)” 1.04.
Under “RBNS enrichment (R)”, `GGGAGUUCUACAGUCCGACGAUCCUGGAGGCAGCAAUUCCUCAUCCAGCUCAGGGACUCCUGACAGCCAAGGGGACAGCAAGAGGACCCAGAGCAGGGAAAGGGGUCGGGGAGUCACACAACCAAAGGUAGACUGGAAUUCUCGGGUGCCAA` is recorded as 0.581.
Under “RBNS enrichment (R)”, `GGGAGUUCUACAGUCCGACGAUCAAACUGAGAAGCCUGUGAGUUGAUGCCGGUUCUCAAGCCGCAGAGCCUGGCUCUCAGAAGCCACGUUAGCGUCUCUCUCUCCUGCUGAUCGCUCGACACAGCACCUUUUCUGGAAUUCUCGGGUGCCAA` is recorded as 12.7.
For `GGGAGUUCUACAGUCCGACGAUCGUAAAGUUGCUGUUGAUCCAAAUAUUUUCAAGCCAUGUAAUCCAUUGGUUUUGUGGGCAGUUUAAUAAACCUGAACCUUUGUGUGUUUUCUAAUUGUACCUGAGUUGACCUGGAAUUCUCGGGUGCCAA`, “RBNS enrichment (R)” read 0.672.
Under “RBNS enrichment (R)”, `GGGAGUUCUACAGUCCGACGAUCUGUGUUAACACAGAACUGAUGUUUAGCAUUCUGCCGCUUUCGUAUUUAUGUAACAAUUCCUUAAAGCCAUUCAAAUGGCUAACUAUUUAAUUUCUUUAGGACAGUUGUAAUGGAAUUCUCGGGUGCCAA` is recorded as 0.463.
`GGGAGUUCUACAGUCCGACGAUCAAGAGGUGCCCAGGCCUGAGGUACUCACAUAAAUGCUUUGUUUUGCUGGUGAUUUAACCAGUGCUUGGAAAAAUCUUGCUUGGCUAUUUCUGCAUCAUUUCUUAAGGCUGUGGAAUUCUCGGGUGCCAA`: “RBNS enrichment (R)” 3.91.

Sample 3
Target: Fragile X messenger ribonucleoprotein 1, C-terminal low-complexity region (Fmr1, Mus musculus, UniProt P35922)
Method: RNA Bind-n-Seq
Molecule type: RNA
Sample: in vitro
Concentration: 200 nM
Notes: whole 134-nt RNA, ends assumed
Added: 150 mM LiCl
Relative to: input library
Reading: higher = stronger binding
Each molecule: 7-deaza-guanosine replaces G
`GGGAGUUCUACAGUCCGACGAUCCCUGUGCUACACAUCGUAUGUACCGAAUCAAACCCCCAAAUUUUUUUAAAUUUUUUUAAAAAAGUAUUAUGUUACGCCGUUCGGAUCUGCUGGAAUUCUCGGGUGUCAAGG` gave a log2 enrichment of 1.33.
`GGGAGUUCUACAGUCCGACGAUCGUCCUGUGCUACACAUCGUAUGUACCGAAUCGGGGAAAGGGGAAAGGGGAAAAAGGGGAAAGUAUUAUGUUACGCCGUUCGGAUCUGCACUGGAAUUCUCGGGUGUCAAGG` has a log2 enrichment of 1.23.
For `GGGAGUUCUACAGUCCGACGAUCUGUGCUACACAUCGUAUGUACCGAAUCGGGGUUUUUUUGGGGAAAAAAAGGGGAAAAAGGGGAAAGUAUUAUGUUACGCCGUUCGGAUCUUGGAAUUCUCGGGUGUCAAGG`, the log2 enrichment was -1.57.
`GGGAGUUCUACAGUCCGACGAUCCACAGACAACACGCACCCACACAGACACAGAGGGAAGGGGUUGGGAUGGGGACAGGGUGCAAAACAGGGCGGGGUAGGACCCCAGCCCCUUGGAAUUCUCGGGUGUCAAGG` gave a log2 enrichment of 0.0907.
For `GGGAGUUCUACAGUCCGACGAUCUGGCCCUGGUGGCAUGCGGGGAGGAGGAGGUGGCCUCAUGGAUCGUGGUGGUCCCGGUGGAAUGUUCAGAGGUGGCCGUGGUGGAGACAGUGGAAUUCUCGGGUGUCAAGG`, the log2 enrichment was 0.103.
The log2 enrichment of `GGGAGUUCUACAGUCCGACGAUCCUGUGCUACACAUCGUAUGUACCGAAUCGGGUUUUUUUGGGUUUUUUUGGGUUUUUUUGGGGAAAGUAUUAUGUUACGCCGUUCGGAUCUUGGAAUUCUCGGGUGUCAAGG` is reported as 1.22.
The log2 enrichment of `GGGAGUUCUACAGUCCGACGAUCUCAAGUCCUGUGCUACACAUCGUAUGUACCGAAUCGGAAAAAGGAAAAAGGUGGAAAGUAUUAUGUUACGCCGUUCGGAUCUGCACUUCCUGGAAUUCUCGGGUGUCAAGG` is reported as -0.833.
For `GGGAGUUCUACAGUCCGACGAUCCAAGUCCUGUGCUACACAUCGUAUGUACCGAAUCGGGAAAAGGAAAAGGAAAAGGAAAGUAUUAUGUUACGCCGUUCGGAUCUGCACUUCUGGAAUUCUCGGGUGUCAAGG`, the log2 enrichment was -0.988.
The log2 enrichment of `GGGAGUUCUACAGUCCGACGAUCUGGGAGGUGGAUUUUGUUUAUUUUUUUAGCUCAUUUCAAGGGGUGGGAAUUUUUUUUUAAUAUGUGUCAUGAAUAAAGUUGUUUUUGAAAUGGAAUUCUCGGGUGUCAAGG` is reported as 1.22.
With `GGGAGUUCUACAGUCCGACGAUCUGGCCCUGGUGGCAUGCGGGGAGGAAGAGGUGGCCUCAUGGAUCGUGGUGGUACCGGUGGAAUGUUCAGAGGUGGCCGUGGUGGAGACAGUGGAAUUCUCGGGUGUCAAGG` the log2 enrichment was -0.271.
`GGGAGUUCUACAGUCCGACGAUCCCUGUGCUACACAUCGUAUGUACCGAAUCGGGCCCCCCGGGGCCCCCCGGGGCCCCCCGGGAAAGUAUUAUGUUACGCCGUUCGGAUCUGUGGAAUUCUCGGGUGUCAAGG` has a log2 enrichment of -2.5.

Sample 4
Target: Interferon regulatory factor 5, full length, phosphomimetic (IRF5, Homo sapiens, UniProt Q13568-2, residues 1-514, S451D/S453D/S456D/S462D)
Method: protein-binding microarray
Molecule type: double-stranded DNA, one strand shown
Sample: in vitro
Concentration: 940 nM top
Notes: 60-bp whole probe
Added: salmon DNA 0.4 mg/ml
Relative to: random background probes
Reading: higher = stronger binding
All sequences stand within: GCCTAGCAC … GTCTTGATTCGCTTGACGCTGCTG
`GTAGGACTGCTTCTCCTTTAGTGCTAG` — result for “fitted relative affinity”: -0.0545 z-score.
`GACGGGATCGGTATCGGGACGTGCTAG` — result for “fitted relative affinity”: 2.11 z-score.
`GACGGTATCGACTTTCAGGACGTGCTA` — result for “fitted relative affinity”: 4.02 z-score.
Under “fitted relative affinity”, `TCATCTCTTGTTCTCTCACTGTGCTAG` is recorded as 2.07 z-score.
For `GACGGACTGGATCTCGGGACGTGCTAG`, “fitted relative affinity” read -0.632 z-score.
Under “fitted relative affinity”, `GACGATATCGGCACTGGAGACGTGCTA` is recorded as -0.25 z-score.
`TTAGGACTCGGTTTCGGTTAGTGCTAG` — result for “fitted relative affinity”: 7.49 z-score.
Under “fitted relative affinity”, `TTAGGTTTCGGTCTCGGTAAGTGCTAG` is recorded as 15.2 z-score.
`TTAGGTCTCGGACTGGGGTAGTGCTAG`: “fitted relative affinity” 0.812 z-score.
`TTAGAACTGAGAATCGATTAGTGCTAG` — result for “fitted relative affinity”: 0.133 z-score.
`GACGGACTCGACACTGGGGACGTGCTA`: “fitted relative affinity” -0.692 z-score.
For `TTAGGTATTGACACTGGGTTAGTGCTA`, “fitted relative affinity” read 0.129 z-score.
`TTAGGACTGCTGATCCTTTAGTGCTAG`: “fitted relative affinity” -0.679 z-score.
`TCAGATCACCGATTTCCTACTGTGCTA` — result for “fitted relative affinity”: -0.0899 z-score.
Under “fitted relative affinity”, `GCAAGAGGAAAGGAACATCAGTGCTAG` is recorded as -0.583 z-score.
`TTTTGTTTTTCATTATTGTCGTGCTAG` — result for “fitted relative affinity”: 2.43 z-score.
`TCAGTTTTGTTTTTCATACTGTGCTAG`: “fitted relative affinity” 2.14 z-score.
`TTAGATATCGGTTTCGGTTAGTGCTAG` — result for “fitted relative affinity”: 8.72 z-score.
Under “fitted relative affinity”, `TTAGGTATCGGACTGGGCTAGTGCTAG` is recorded as 3.44 z-score.
